Experimental data of several laboratories.
“And” joins repeats or separate records; there may be more than shown. Numbers after ± are the reported error.

CC/C(=N\NC(=O)NCc1cccc(O)c1)c1ccc(O)c(C)c1O — protein level (SK-OV-3; Western blot, refers to: MST; 10 µM, 24 h, 3D culture in gellan gum, unit not given; reference: β-actin): 1.21 ± 0.26
COc1ccc(NC(=S)N/N=C/c2cccc3cc4ccccc4nc23)cc1 — late apoptotic cells (HeLa; annexin V/PI; concentration not given, 48 h, dosed at IC50): 17.7%
NC(=O)NOCCCCCCCCCCCCCCCC[P+](c1ccccc1)(c1ccccc1)c1ccccc1.O=C([O-])C(F)(F)F — cell confluence (HCT-116; cell growth, live-cell imaging; 0.4 µM, control at 90% confluence): 71.1%
CC(C)C[C@H](NC(=O)[C@H](CCc1ccccc1)NC(=O)CN1CCOCC1)C(=O)N[C@@H](Cc1ccccc1)C(=O)N[C@@H](CC(C)C)C(=O)[C@@]1(C)CO1 — intracellular content (HCC1937; LC-MS/MS; concentration not given, after pulse treatment): 7 pmol/mg protein
Nc1cccc2c1C(=O)N(C1CCC(=O)NC1=O)C2=O (centres unmarked) — surface marker level (RPMI-8226; flow cytometry, refers to: CD138; concentration not given; reference: comparator compound alone): 189%
NC(=O)NOCCCCCCCCCCCCCC[P+](c1ccccc1)(c1ccccc1)c1ccccc1.O=C([O-])C(F)(F)F — cell confluence (HCT-116; cell growth, live-cell imaging; 0.3 µM, control at 90% confluence): 83.1%
COc1nc(NCc2cn(-c3ccc(C(=O)Nc4ccc(C(F)(F)F)cc4)cc3)nn2)nc(OC)n1 — apoptotic cells (HCT-116; annexin V-FITC/PI; IC50, 24 h; reference: untreated): 42 fold
CN(Cc1ccc(F)cc1)c1ccc(CO)c(Cl)c1 — IC50 (RBE; cell viability, CellTiter-Glo): 260 nM
[177Lu+3].[Cl-].[Cl-].[Cl-] — viability decrease (4T1; flow cytometry; concentration not given, 72 h): 35.8 ± 2.7%
C=CC1=C(C)c2cc3[n-]c(cc4nc(cc5[n-]c(cc1n2)c(C)c5C=C)C(C)=C4CCC(=O)O)c(CCC(=O)O)c3C.[Zn+2] — fold change (SH-SY5Y; RNA-seq, refers to: TFPI2 mRNA; 5 µM, 5 h; reference: untreated cells): 2.16
O=C(c1ccc2c(=O)n3c(nc2c1)CCCCC3)N1CCN(Cc2ccccc2)CC1 — protein level (BV-2; refers to: caspase-8; 30 nM, added: high glucose; reference: high glucose): decreased
CNCc1ccc(-c2nn(Cc3ccccc3)c3ccccc23)o1 — IC50 (RBE; cell viability, CellTiter-Glo): 21200 nM
COC(=O)[C@]12CCC(C)(C)C[C@H]1[C@H]1C(=O)C=C3[C@@]4(C)C=C(C#N)C(=O)C(C)(C)[C@@H]4CC[C@@]3(C)[C@]1(C)CC2 — point of departure (HepG2; high content imaging, refers to: nuclear size; 24 h, representative mode): 3.31 µM
COc1ccc(-n2nc(C(C)=O)s/c2=N\N=C(/C)c2ccc(NC(=O)c3ccc(C)cc3)cc2)cc1 — viability (MCF7; 1.25 µM): 4.79%
Cn1c(Nc2nc3ccc(C(F)(F)F)cc3s2)nc2cc(C(=O)NCCOCCO)ccc21 — fold change (SH-SY5Y; RNA-seq, refers to: FHL2 mRNA; 5 µM, 5 h; reference: untreated cells): 2.04
Cc1cccc(-c2[nH]c(CNc3ccccc3F)nc2-c2ccc3ncnn3c2)n1 — TNF-alpha production (CD8+ T cells from myeloma patient; ELISA; human; 0.5 µM): 1.11% and 1.04% and 1.18% and 1.13% and 1.12%
NC(=O)NOCCCCCCCCCCCC[P+](c1ccccc1)(c1ccccc1)c1ccccc1.O=C([O-])C(F)(F)F — cell confluence (HCT-116; cell growth, live-cell imaging; 4 µM, control at 90% confluence): 3.81 ± 0.66%
Cc1cnc(NC2CCOCC2)nc1-n1cnc(C(=O)NC(CN)c2cc(F)cc(Cl)c2)c1 (centres unmarked) — G1 phase cells (Rec1; flow cytometry; 1 µM, 72 h): 51.2%
C=Cc1c2[n-]c(c1C)/C=c1\[n-]/c(c(C)c1C=C)=C\c1[n-]c(c(CCC(=O)O)c1C)/C=c1\[n-]c(c(C)c1CCC(=O)O)=C2.[Sn+4] — fold change (SH-SY5Y; RNA-seq, refers to: SPRY1 mRNA; 5 µM, 5 h; reference: untreated cells): 3.38
C[C@]12CCCN1CC1=NNC(=O)c3cc(F)cc4[nH]c2c1c34 — EC50 (HCT-116 colorectal cancer cells; cell viability; concentration not given, added: with temozolomide): > 3000 nM
CN(C)CC(=O)N1CCC(c2ccc(NC(=O)c3nc(C#N)c[nH]3)c(C3=CCCCC3)c2)CC1 — beat rate (hiPSC-derived cardiomyocytes (iCell); impedance (xCELLigence Cardio); concentration not given, 2 h; reference: control): 90%
CC(C)NCC(O)c1ccc(O)c(O)c1 (centres unmarked) — sarcomere length (mouse ventricular cardiomyocytes; dose not given, 0.415 s): 1.77 µm
COc1cnc2cccc(N3CCc4c(cc(Cn5ccnc5C)cc4-c4cn(C)nc4C(F)(F)F)C3=O)c2c1 — EC50 (Raji; cell growth, inhibitor; 120 h): 17300 nM
Clc1ccc(N/N=C(\c2ccccc2)c2ccccn2)nc1 — apoptotic cells (BT-474; annexin V flow cytometry; 0.5 µM, 48 h): ~20%
CNC(=O)c1c(F)cccc1Nc1nc(Nc2cc3c(cc2OC)CCN3C(=O)CN(C)C)nc2[nH]ccc12 — cell index (hiPSC-derived cardiomyocytes (iCell); impedance; concentration not given, 24 h; reference: control): 86.6%
CC(=O)O[C@@]12CO[C@@H]1C[C@H](O)[C@@]1(C)C(=O)[C@H](O)C3=C(C)[C@@H](OC(=O)[C@H](O)[C@@H](NC(=O)OC(C)(C)C)c4ccccc4)C[C@@](O)([C@@H](OC(=O)c4ccccc4)[C@H]21)C3(C)C — CD133-positive cells (4T1; flow cytometry; concentration not given, 48 h): 9 ± 0.3%
CCN(Cc1ccccc1OC)c1ccc(CO)c(Cl)c1 — IC50 (RBE; cell viability, CellTiter-Glo): 430 nM
NC(=O)NOCCCCCCCCCC[P+](c1ccccc1)(c1ccccc1)c1ccccc1.O=C([O-])C(F)(F)F — cell confluence (HCT-116; cell growth, live-cell imaging; 5 µM, control at 90% confluence): 67%
Cc1sc2c(c1C)C(c1ccc(Cl)cc1)=N[C@@H](CC(=O)NCCCCCCCCNC(=O)COc1cccc3c1C(=O)N(C1CCC(=O)NC1=O)C3=O)c1nnc(C)n1-2 (some centres unmarked) — cell motility (4T1; wound healing; concentration not given, laser irradiation): 37.8% and 34.3% and 37%
c1ccc2[nH]ccc2c1 — mRNA level, LS mean (HCT-8; RNA-seq, refers to: ANKRD34A; concentration not given): 2.45 counts per million
NCc1ccc(-c2nn(Cc3ccccc3)c3ccccc23)o1 — IC50 (RBE; cell viability, CellTiter-Glo): 2340 nM and 2410 nM
Cc1cc(Nc2ncc(Cl)c(Nc3ccccc3S(=O)(=O)C(C)C)n2)c(OC(C)C)cc1C1CCNCC1 — log2 fold change (CLB-BAR; phosphoproteomics LC-MS/MS, refers to: BRD2 phosphorylation; 200 nM, 60 min; reference: untreated): -4.72
NC(N)=NCCC[C@H](NC(=O)COCC(c1ccccc1)c1ccccc1)C(=O)O — degranulation (LAD2; β-hexosaminidase release; 30 min, 37 °C): inactive
CCCCc1nc(Cl)c(CO)n1Cc1ccc(-c2ccccc2-c2nn[nH]n2)cc1 — log2 fold change (human PBMC; RNA-seq, refers to: MMP14 mRNA; 10 µg/mL, 24 h; reference: untreated control): 1.82
C[C@H](CCC(=O)NCCS(=O)(=O)O)[C@H]1CC[C@H]2[C@@H]3CC[C@@H]4C[C@H](O)CC[C@]4(C)[C@H]3CC[C@]12C — PCNA-positive nuclei (PCK rat cholangiocyte cysts; 20 µM; reference: untreated): 81%
CCn1cc(-c2cc(Cn3ccnc3)cc3c2CCN([C@H](c2cc(OC)ccn2)C2CC2)C3=O)c(C(F)(F)F)n1 — EC50 (IM95; cell growth, inhibitor; 120 h): 4680 nM
OCc1ccc(N(Cc2ccc(F)cc2)CC2CC2)cc1Cl — IC50 (RBE; cell viability, CellTiter-Glo): 260 nM
O=C(/C=C/C=C/C=C/C1CCCCC1)NC1=C[C@@](O)(/C=C/C=C/C=C/C(=O)NC2=C(O)CCC2=O)[C@@H]2O[C@@H]2C1=O — GI50 (IPC-298; cell growth, CellTiter-Glo; 78 h): 18000 nM
OCc1ccc(-c2nn(Cc3ccncc3)c3cccnc23)o1 — IC50 (RBE; cell viability, CellTiter-Glo): 8720 nM
COc1cc(/C=C/C(=O)N2CCC=CC2=O)cc(OC)c1OC — mRNA level (MDA-MB-468; qRT-PCR, refers to: ENO1; 30 µM, 6 h; reference: time zero): 99.8 ± 10.8%
CCN(Cc1ccc(OC)cc1)c1ccc(CO)c(Cl)c1 — IC50 (RBE; cell viability, CellTiter-Glo): 200 nM
Cn1cc(Nc2nccc(-c3ccc4c(c3)CN(C3COC3)CC[C@H]4NC(=O)c3cn(C(C)(C)C)nn3)n2)cn1 — pathway activation z-score (mouse splenic B cells; refers to: Opioid signalling pathway; 30 mg/kg, IgD-activated in vivo; reference: vehicle, direction not given): 2.48
CSc1cccc(Nc2ncc3cc(-c4c(Cl)cccc4Cl)c(=O)n(C)c3n2)c1 — beat amplitude (hiPSC-derived cardiomyocytes (iCell); impedance (xCELLigence Cardio); concentration not given, 2 h; reference: control): 104%
Cl.Cl.NCCNS(=O)(=O)c1ccc(Cl)c2ccncc12 — relative cell number (SK-OV-3; ATP; 0.1 µM, 4 days, 3D U-bottom low-attachment; reference: untreated): 109%
CCN(CCO)CCCC(C)Nc1ccnc2cc(Cl)ccc12 (centres unmarked) — funny current (hiPSC-derived cardiomyocytes; perforated patch voltage clamp; 10 µM, added: hyperpolarizing step to -120 mV): -17.2 pA and -6.2 pA and -13.5 pA and -16.3 pA
Cn1cc(-c2ccc(-c3cncc(Cl)c3N3CCC4(CCNC4=O)CC3)cc2)cn1 — fold change in expression (COLO 205; microarray, refers to: FosB; concentration not given, 4 h; reference: untreated cells): 2.13
[Cl-].c1csc([I+]c2cccs2)c1 — extracellular H2O2 production (LS174T; 10 µM, 1 h; reference: control): 57 ± 3%
O=c1[nH]nc(OCCCc2ccc(Cl)cc2)c(NCc2cccnc2)c1Br — log2 fold change (HEK293T; RNA-seq, refers to: MTHFR mRNA; 10 µM, 6 h; reference: vehicle): 0.0726
O=C1N(Cc2cccc3ccccc23)c2ccccc2C12NN=C(c1ccccc1)S2 (centres unmarked) — viability loss (H2373 and H2461 mesothelioma; MTT; 10 µM, 24 h): 80 to 90%
NC(=O)NOCCCCCCCCCCCCCCCCCCCC[P+](c1ccccc1)(c1ccccc1)c1ccccc1.O=C([O-])C(F)(F)F — cell confluence (HCT-116; cell growth, live-cell imaging; 5 µM, control at 90% confluence): 2.87%
CCn1cc(-c2cc(Cn3ccoc3=N)cc3c2CCN([C@@H](C)c2cc(OC)ccn2)C3=O)c(C(F)(F)F)n1 — EC50 (Caov-3; cell growth, inhibitor; 120 h): 6.95 nM
CCCOc1ccc(-c2ccc(C#N)cc2)cc1 — number of downregulated genes (BeWo; RNA sequencing; 5 µM, low dose, log2 fold change and q cut-offs): 195
CCOC(=O)CSc1nc(-c2ccc(Cl)cc2)c2c(NC(=O)c3ccccc3)nnc-2[nH]1 — cell growth (SF-295; SRB; 10 µM, NCI60 single-dose screen; reference: untreated): 94.8%

Some of these lines once more:
O=c1[nH]nc(OCCCc2ccc(Cl)cc2)c(NCc2cccnc2)c1Br — log2 fold change (HEK293T; RNA-seq, refers to: MTHFR mRNA; 10 µM, 6 h; reference: vehicle): 0.0726
O=C1N(Cc2cccc3ccccc23)c2ccccc2C12NN=C(c1ccccc1)S2 (centres unmarked) — viability loss (H2373 and H2461 mesothelioma; MTT; 10 µM, 24 h): 80 to 90%
NC(=O)NOCCCCCCCCCCCCCCCCCCCC[P+](c1ccccc1)(c1ccccc1)c1ccccc1.O=C([O-])C(F)(F)F — cell confluence (HCT-116; cell growth, live-cell imaging; 5 µM, control at 90% confluence): 2.87%
